Measurements from different studies.
Lines come from different studies, so protocols differ. ± gives the spread as reported.

Clc1ccc(C=[N+]2N=C(Nc3ccccc3)[S][Pt-]2([Cl])[Cl])s1
IC50 (CEM human lymphocytes; cell proliferation): 36 µM

Cc1cc(C=O)cc(C)c1Oc1cc(Nc2ccc(C#N)cn2)nc2cnccc12
IC50 (MOLT-3; 48 h): 14.9 ± 5.6 µM

O=C(/C=C/c1ccc(Cl)cc1)N1CCC2(CC1)CN(Cc1ccc(Cl)c(Cl)c1)C(=O)O2
IC50 (EBI2-overexpressing mouse B cells; B cell chemotaxis, antagonist; 5 h, with: 7α,25-OHC 0.1 nM): 7e-06 µM

C(=C/c1ccccc1)/c1ccccc1
IC50 (MOLT-3; cell growth or viability, ATP luminescence; 24 h): 25 µM

Cc1cc(NC(=O)c2cccc(NC(=O)/C(C#N)=C/C(C)(C)C)c2)ccc1Nc1nccc(-c2cccnc2)n1
IC50 (SH-SY5Y MKK7-ACT; c-Jun phosphorylation, inhibitor, western blot, item: phospho-c-Jun Ser73; 6 h, with: doxycycline): 8.62 ± 1.97 µM

O=[N+]([O-])c1ccc(C=[N+]2N=C(Nc3ccccc3)[S][Pt-]2([Cl])[Cl])s1
IC50 (CEM human lymphocytes; cell proliferation): 8.1 µM

CC(=O)c1cnc(N)nc1N1CC[C@H]1c1nn2ccc(Cl)c2c(=O)n1-c1ccccc1
IC50 (human CD4 T cells; Th2 differentiation, item: IL-13): 0.018 µM

NCCCCCCN1N=C(c2ccc(NC(=O)N3Cc4ccncc4C3)cc2)CC(c2cccc3ncccc23)C1=O (stereo not drawn)
IC50 (A549-C4.4a; cell viability, CellTiter-Glo): 0.012 µM

CCCCCCCCC=CCCCCCCCC(=O)OCC1OC(n2ccc(N)nc2=O)C(F)(F)C1O (stereo not drawn)
IC50 (MOLT-4/C8; cell growth; with: dipyridamole 4 µg/mL): 0.098 ± 0.03 µM

N=C(N)NCCC[C@@H]1NC(=O)[C@H](CCCCN)NC(=O)[C@@H](Cc2ccc(O)cc2)NC(=O)[C@H](CC(=O)O)NC(=O)CNC1=O
IC50 (U87; cytotoxicity, MTT; 48 h): 77 ± 3.7 µM

C1=[N+]2CCCC[N+]3=Cc4ccc5[n]4[Au-]23[n]2c1ccc2-c1nc2ccccc2nc1-5.F[P-](F)(F)(F)(F)F
IC50 (prostate cancer cell lines; NCI60 panel mean): 16 µM

C=CC(=O)Nc1ccc(-c2c(-c3ccc(Oc4cccc(C)n4)cc3)c3c(N)ncnc3n2C)cc1
IC50 (SNU-16; cell growth or viability, ATP luminescence; 96 h): 0.0006 µM

Cc1cc(C=O)cc(C)c1Oc1cc(Nc2ccc(C#N)cn2)nc2ccncc12
IC50 (MOLT-3; 48 h): 17.4 ± 3.8 µM

Cc1cnc(Nc2cc(C)c(C)c(C)c2)nc1Nc1ccc2oc(=O)[nH]c2c1
IC50 (human CD14+ monocytes; STAT6 phosphorylation; with: IL-13): 0.0517 µM

NS(=O)(=O)c1ccc(NC(=O)NN[C@@H]2O[C@H](CO)[C@@H](O)[C@H]2O)cc1
IC50 (HCEC; cell growth or viability, MTT; 96 h): > 100 µM

[Cl][Pd-]1([Cl])[S]C(Nc2ccccc2)=N[N+]1=Cc1ccc(-c2ccccc2)s1
IC50 (CRFK; cell growth or viability): > 100 µM

CC(C)=CCC1=C([O-])C(=O)c2ccccc2C1=O.CC(C)=CCC1=C([O-])C(=O)c2ccccc2C1=O.Cc1cc2cccnc2c2ncccc12.[Cu+2]
IC50 (MRC5 normal fibroblasts; cell viability, MTT; 24 h): 3 ± 0.1 µM

CC1(C)Cc2c(-c3ccccc3)c(-c3ccc(Cl)cc3)c(CC(=O)O)n2C1
IC50 (mouse peritoneal macrophages; LTB4 production; with: LPS): 1.6 µM

CC1=CC(C)=[N+]2C1=C(CO)c1c(C)cc(C)n1[B-]2(C)C
IC50 (RPE-1; cell viability, resazurin; 0.1667 h, 510 nm irradiation 2.44 J/cm2): 1.31 ± 0.1 µM

C=CC(OC(C)=O)c1ccccc1 (stereo not drawn)
IC50 (EJ-28; MTT; 24 h): > 50 µM

Cc1c(C)c(C)[c-](C)c1C.O=[N+]([O-])c1ccnc(-c2[c-]cccc2)c1.[Cl-].[Ir+3]
IC50 (A2780 cells; cell growth, SRB; 24 h exposure, 72 h recovery): 2.7 ± 0.1 µM

CNC(=O)C1CCN(c2cc(C)c(F)cc2NC(=O)c2ccc(-c3cc(O)ccc3C)c(C)c2)CC1
IC50 (12Z; item: PTGS2 mRNA; 3 h, 30 min pretreatment, with: IL-1β 0.05 ng/mL): 7.2 µM

Cc1c(C)c(C)[c-](C)c1C.OCc1c[c-]c(-c2ccccn2)cc1.[Cl-].[Ir+3]
IC50 (A2780 cells; cell growth, SRB; 24 h exposure, 72 h recovery): > 50 µM

Cc1cc2nc3n(CCCO)c(-c4cc(C(C)(C)C)c(O)c(C(C)(C)C)c4)cn3c2cc1C
IC50 (HEK293 NF-κB luciferase; NF-κB reporter gene; with: PMA and ionomycin): > 25 µM

CCCC(CCC)C(=O)[O][Pt]([NH2])([NH2])([Cl])([Cl])[O]C(=O)C(Cl)Cl
IC50 (C13 cisplatin-resistant; cytotoxicity, MTT; 72 h): 1.39 ± 0.37 µM

CCCCCCCCCCCCCCCCCC(=O)N[C@@H](CCCNC(=N)N)C(=O)N[C@@H](CCCNC(=N)N)C(=O)N[C@@H](CCCNC(=N)N)C(=O)N[C@@H](CCCNC(=N)N)C(=O)N[C@@H](CCCNC(=N)N)C(N)=O
IC50 (HCEC; cytotoxicity): > 150 µg/mL

CC1=C2[O][Ru-]([Cl])[O+]=C2C=CN1CCCCCCCCCCCCN1C=CC2=[O+][Ru-]([Cl])[O]C2=C1C.Cc1ccc(C(C)C)cc1.Cc1ccc(C(C)C)cc1
IC50 (DAN-G; cell growth or viability, crystal violet; 96 h): 4.4 µM

CCn1cc[n+](CC)[c]1[Au-][Cl]
IC50 (RC-124 kidney epithelial; cell proliferation, crystal violet staining; 96 h): 6.1 ± 2.6 µM

CC(=O)[O-].O.O.[O-]c1ccc(Br)cc1C=NCCN1CCOCC1.[Zn+2]
IC50 (NHDF normal fibroblasts; cell viability, MTT; 72 h): 66.5 µg/mL

Cc1c(-c2c3c(N)n[nH]c(=O)c3nn2-c2ccc(NC(=O)/C=C/CN(C)C)cc2)oc2ccc(Br)cc12
IC50 (SNU-16; cell growth or viability): 0.0082 µM

Fc1ccc(-c2cn(CSc3ccccc3)nn2)c(F)c1
IC50 (JEG-3; cell growth or viability, MTS; 72 h): 35.5 µM

O=[N+]([O-])c1ccc(C=[N+]2N=C(Nc3ccccc3)[S][Pd-]2([Cl])[Cl])s1
IC50 (CEM human lymphocytes; cell proliferation): 30 µM

C=C1C(=O)C23CCC4C(C)(C)CCCC4(C)C2C(O)CC1C3 (single isomer, unassigned)
IC50 (786-0; cell growth or viability, MTT): 4.9 µM

CC(C)(C)OC(=O)C(NCc1ccc(CCC(=O)NO)nc1)C1CCCCC1 (stereo not drawn)
IC50 (human CD14+ monocytes; M-CSF differentiation; 20 h then washout, with: M-CSF): 0.625 µM

S=c1n(-c2ccccc2)c2c3ccccc3nc3[n+]2[n]1[Ir-3]12([S]3)([c]3ccccc3-c3cccc[n+]31)[c]1ccccc1-c1cccc[n+]12
IC50 (MRC9; cell viability, MTT; irradiation 450 nm, 15.5 mW/cm^2, 15 min): > 50 µM

Cc1ccc(NC(=O)c2c(C)oc3ccc(O)c(CN4CCCCCC4)c23)cc1
IC50 (ARD; cell viability, MTS; 72 h): 12.9 ± 1.4 µM

NNC(=O)Cn1ncc2c3ccccc3n(CC(=O)NN)c2c1=O
IC50 (GMSC normal cells; cytotoxicity, MTT; 48 h): > 50 µM

[Cl][Au+][Cl].[O-][Cl+3]([O-])([O-])[O-].c1ccc(P(=NCc2ccccn2)(c2ccccc2)c2ccccc2)cc1
IC50 (A2780cisR (cisplatin-resistant); cell growth, MTT; 74 h, 1% DMSO): 8 ± 2.4 µM

COc1ccc(/C=C/C2=[N+]3C(=C(COC(C)=O)c4c(C)cc(/C=C/c5ccc(OC)cc5)n4[B-]3(F)F)C(C)=C2)cc1
IC50 (RPE-1; cell growth or viability, resazurin; dark): > 100 µM

C=CC(OC(C)=O)c1ccc(OC)cc1 (stereo not drawn)
IC50 (RT-112; MTT; 24 h): > 50 µM

CCCCCCCCCC[N]1C(=O)c2cccc[n+]2[Ir]1[Cl].Cc1c(C)c(C)[c-](C)c1C
IC50 (SH-SY5Y; cell growth or viability, SRB; 24 h): 10 µM

C=CC(=O)Nc1ccc(-c2c(-c3ccc(Oc4ccccc4)cc3)c3c(N)ncnc3n2C)cc1
IC50 (SNU-16; cell growth or viability, ATP luminescence; 96 h): 0.005 µM

O=C1C(Cl)=C(Cl)C(=O)c2c1cccc2[N+](=O)[O-]
IC50 (MOLT-3; cell growth or viability, XTT; 48 h): 79.9 µM

COc1ccc(-c2cc(=O)c3c(O)cc(O[C@@H]4O[C@H](CO)[C@@H](O)[C@H](O)[C@H]4O)cc3o2)cc1OC
IC50 (AML12; cell growth or viability, resazurin; 72 h): > 100 µM

Cc1ccc(S(=O)(=O)c2c(-c3ccccc3)c3c(C)c4cc(F)ccc4n3c3ccccc23)cc1
IC50 (LS174T; cell growth or viability, MTT; 72 h): > 100 µM

C=CCc1ccc(O)c(-c2cc(CC=C)ccc2O)c1
IC50 (UACC-62; cell growth, IncuCyte confluence): 64 µM

CC(C)CCO
IC50 (SK-N-SH; cell growth or viability, MTT; 24 h): > 5000 µM

C=CC(OC(C)=O)c1cc(OC)c(OC(C)=O)c(OC)c1 (stereo not drawn)
IC50 (EJ-28; MTT; 24 h): > 50 µM

CC(C)c1cccc(C(C)C)c1-n1ccn(-c2c(C(C)C)cccc2C(C)C)c1=[Se].[Cl][Au]
IC50 (LoVo MDR; MTT; 72 h): 3.9 ± 1.1 µM

[Cl][Cu-][c]1n(-c2c(C(c3ccccc3)c3ccccc3)cc(C(c3ccccc3)c3ccccc3)cc2C(c2ccccc2)c2ccccc2)c2c([n+]1-c1c(C(c3ccccc3)c3ccccc3)cc(C(c3ccccc3)c3ccccc3)cc1C(c1ccccc1)c1ccccc1)-c1cccc3cccc-2c13
IC50 (C13 cisplatin-resistant; cell viability, MTT; 72 h): > 50 µM

C=CC(=O)N1CCCC(n2c(=O)c3ncccc3n(Cc3ccc(Oc4ccccc4)cc3)c2=O)C1 (stereo not drawn)
IC50 (primary ALL cells; cell viability; 72 h, less sensitive samples, MSC co-culture): > 20 µM

Excerpt of the above:
Cc1c(C)c(C)[c-](C)c1C.O=[N+]([O-])c1ccnc(-c2[c-]cccc2)c1.[Cl-].[Ir+3]
IC50 (A2780 cells; cell growth, SRB; 24 h exposure, 72 h recovery): 2.7 ± 0.1 µM

CNC(=O)C1CCN(c2cc(C)c(F)cc2NC(=O)c2ccc(-c3cc(O)ccc3C)c(C)c2)CC1
IC50 (12Z; item: PTGS2 mRNA; 3 h, 30 min pretreatment, with: IL-1β 0.05 ng/mL): 7.2 µM

Cc1c(C)c(C)[c-](C)c1C.OCc1c[c-]c(-c2ccccn2)cc1.[Cl-].[Ir+3]
IC50 (A2780 cells; cell growth, SRB; 24 h exposure, 72 h recovery): > 50 µM

Cc1cc2nc3n(CCCO)c(-c4cc(C(C)(C)C)c(O)c(C(C)(C)C)c4)cn3c2cc1C
IC50 (HEK293 NF-κB luciferase; NF-κB reporter gene; with: PMA and ionomycin): > 25 µM
